# Published values collected from several papers.
# Every numbered part comes from another study and shows a few of its results, in no order. Changes are numbered by the printed parent chain.

# Block 1
# Target: RNA binding protein fox-1 homolog 2, RRM domain, GST-SBP tag (RBFOX2, Homo sapiens, UniProt O43251-10, residues 100-194)
# Technique: RNA Bind-n-Seq
# Form: RNA
# Medium: in vitro
# Concentration: 365 nM
# Setting: natural RNA segment, single round, ends assumed
# Baseline: no-protein control
# Reading: higher = stronger binding
# Constant ends, left off below: GGGAGUUCUACAGUCCGACGAUC … UGGAAUUCUCGGGUGCCAA
# Construct (chain): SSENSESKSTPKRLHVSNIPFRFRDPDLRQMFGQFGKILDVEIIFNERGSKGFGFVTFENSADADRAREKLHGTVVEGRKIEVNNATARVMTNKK
Strand,RBNS enrichment (R)
CUUGCUUUCAUUUGAAGUUUGGGUUUGCUUUCUGUGUUCUGUGCGUAUCUUGUUCAGUGUCGUCAAGGUUGGGCUUCACGUCUCACUGCAGUGGAGCGAGCGGACAUUCU,0.286
AGAACAGACUUACUGAAGUUUAGGUAUAGUGAGCCACACUCCACUGCCAAGGUAGAGAACUGUGAGUGACUGUUGGUGUGGUGAAGGGUGUUGACCAUGCAGGGAAGUGG,0.895
AGUUUUGGAUAUGGGUGGUUUUCUUUUCCGGGUUUGGUGGAAAGUAAUUUGAGAACUUUAAGGUUGUCUUUUUAACUGCUGGCAAAAUGUUGAUUUUUUAAUAUUAGAUA,0.776
AGAAGACUAUGAAAGGAAGCUCAACUCCAGUAAAGAACUAGAACAGUGUAUAACAUGAAGAUAACAUUUUGUCUUUGACCACUGUCUUUUGAAUGGGCCCACAGUGUUUA,0.432
UUUCUGUCUCAGUGUGAUCCACUAACCCACAGGAUCAUUUGGAACCUUGAAUAGCUCUGCUUGGACAAUGGGGUUGGGGAAUAGGGUUGUCUUUCCUAUGAAAAUGCCAU,0.482
CCCCUGCACCCCUGGAAGCCCAGCACCGGGGCCAGCAGGCUGUGUUCCGUGCUUGCCAACCUAGACCCUGGCAUUAGAAAUUGUUUUGUCAGCAGUCUCUGCCCUCUCGA,0.406
UAUGUUGGUUUAGCGUUGUUUUGUGGAUAAGAAAAAUGCUUGACCCUGAAAUAUUUUCUACUUUAAAUUGUGGAUGAAGACCCUAUCUCCCACAAAUAAGUUCCCAUUUC,2.04
UAUGUCUCCGGGGUCACGCAGAGCCGUCAGCCACCACCCCAGCACCCGGCACAUAGGCGUCUCAUAAAAGCCCAUUUUAUGAGAACCAGAGCUGUUUGAGUACCCCGUGU,0.56
AUGGUGAAAACUGUGGGAAGGGUUUUUUUUUUUAAUUUCAACAAAAGAAAAAGUGACCAUCUUACCUGUCAUUCAGAAUGCAAGCUAACAUCAUCCCUGUAAGCAGAGAG,0.324
UCUUUCAUACGAUACUCUUUCUCAAGAAGGGGGCUCCCUGGGAUCUCCAGGUGUACUGCACUUACCCUCAAUCCAGCCCCGGAGAAGCAAGUGAAAAGGGUGGGUCCCUC,0.504
CAGUCUGAGCUGACUCCCUUCAGUGUGACCCCACUGUGUGGUUCCAUGGUCUUCGAUGUGGUUUUCAUUUACUGGUCAGGGGGCACCUCCCUGUAUUAGAAAUCUUGGAG,0.373
GGCAAUAUUUUAUCAUAUGUUCUAAAAGAGAAGGAAGAGAAAAUACUACUUUCUCAAAAUGGAAGCCCUUAAAGGUGCUUUGAUACUGAAGGACACAAAUGUGACCGUCC,0.346

# Block 2
# Target: CCND2, cyclin fold, Cln2 fusion (human)
# Technique: yeast growth competition, sequencing
# Medium: yeast
# Setting: weak parent motif
# Baseline: not given
# Reading: higher = stronger binding
# Starting sequence: PKMYT1 docking peptide (human); SFEPRNLLSLFED; partner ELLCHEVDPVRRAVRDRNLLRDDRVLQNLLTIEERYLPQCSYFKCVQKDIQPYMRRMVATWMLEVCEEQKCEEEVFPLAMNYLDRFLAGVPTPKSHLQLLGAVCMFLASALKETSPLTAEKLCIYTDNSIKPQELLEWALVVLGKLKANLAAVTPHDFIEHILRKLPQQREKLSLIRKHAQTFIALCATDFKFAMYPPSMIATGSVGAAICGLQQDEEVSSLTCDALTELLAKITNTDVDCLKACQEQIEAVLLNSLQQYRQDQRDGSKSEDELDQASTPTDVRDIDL
Substitution,normalised enrichment score
SFEPRALLSLFED [N6A],0.445
RFEPRNLLSLFED [S1R],-0.289
SFEPYNLLSLFED [R5Y],0.325
LFEPRNLLSLFED [S1L],0.0242
FFEPRNLLSLFED [S1F],-0.157
STEPRNLLSLFED [F2T],0.469
SFEPENLLSLFED [R5E],0.241
SFEPRNLWSLFED [L8W],0.185
SFEPRNLLSLTED [F11T],0.127
YFEPRNLLSLFED [S1Y],-0.267
SFEPRNLKSLFED [L8K],0.128
SFEPRNLLSVFED [L10V],-0.0985
HFEPRNLLSLFED [S1H],-0.0871
SFEPRNLLSQFED [L10Q],0.135
SFCPRNLLSLFED [E3C],-0.241
SFEPRNLLSLIED [F11I],0.0909
SFEPWNLLSLFED [R5W],0.109
SFEPLNLLSLFED [R5L],0.262
SFEPRNLLSLAED [F11A],0.451
CFEPRNLLSLFED [S1C],-0.194
SFEPRNLLTLFED [S9T],0.0725
SFEPRNLCSLFED [L8C],-0.114
SPEPRNLLSLFED [F2P],0.0907
SFEPRNLMSLFED [L8M],0.288
MFEPRNLLSLFED [S1M],0.171

# Block 3
# Target: Interferon regulatory factor 5, full length, phosphomimetic (IRF5, Homo sapiens, UniProt Q13568-2, residues 1-514, S451D/S453D/S456D/S462D)
# Technique: protein-binding microarray
# Form: double-stranded DNA, one strand shown
# Medium: in vitro
# Concentration: 940 nM top
# Setting: 60-bp whole probe
# With: salmon DNA 0.4 mg/ml
# Baseline: random background probes
# Reading: higher = stronger binding
# Constant ends, left off below: GCCTAGCAC … GTCTTGATTCGCTTGACGCTGCTG
Strand,fitted relative affinity
TTAGGTATCCTACTGCTTTCGTGCTAG,0.443 z-score
TTAGGGATCGGTCTCGGTTAGTGCTAG,2.34 z-score
TTTAAATTCTAATTAGAATTGTGCTAG,-0.297 z-score
TCATCTCCCATTATATTACTGTGCTAG,1.42 z-score
GACGGTTACGGACTGGGGACGTGCTAG,-0.403 z-score
TATCTTATGATATATATAATAGTGCTA,0.261 z-score
TCCTCTTTCTCTGCTACCCTCGTGCTA,2.23 z-score
GATTGGTTGAACATGAACTTGTGCTAG,-0.175 z-score
GCCGGTCTCGGTTTCGGGACGTGCTAG,7.14 z-score
TTAGATCTCCGTATCGATTAGTGCTAG,1.65 z-score
TTAGAACTGGGGTTTCGAATAGTGCTA,1.78 z-score
GACGAACTTGGGTATCGAGACGTGCTA,1.1 z-score
TTAGGTATCGGTCTGGGTTAGTGCTAG,9.78 z-score
TTAGGTTCCGGTTTCGTTTAGTGCTAG,7.12 z-score
TTAGGTTTACTTTCCCTTTAGTGCTAG,0.728 z-score
TTAGTACTGGGGACTGGGTTAGTGCTA,-0.102 z-score
GACGGTATCGTCTATCGGGACGTGCTA,3.04 z-score
GACGGTATCCTACTGCTGCCGTGCTAG,-0.358 z-score
CTGCCTGCTCAGACTGGGGCGTGCTAG,-0.259 z-score
TTAGTTTCCGGTTTCGGTTAGTGCTAG,10.3 z-score
TTAGGTTTCCTTTCCCTTTCGTGCTAG,1.93 z-score
TTAGATTTCAGTATCGATTCGTGCTAG,5.88 z-score

# Block 4
# Target: Ras GTPase-activating protein-binding protein 1, C-terminal RGG region (G3BP1, Homo sapiens, UniProt Q13283)
# Chain of UniProt Q13283 (whole entry, looked up): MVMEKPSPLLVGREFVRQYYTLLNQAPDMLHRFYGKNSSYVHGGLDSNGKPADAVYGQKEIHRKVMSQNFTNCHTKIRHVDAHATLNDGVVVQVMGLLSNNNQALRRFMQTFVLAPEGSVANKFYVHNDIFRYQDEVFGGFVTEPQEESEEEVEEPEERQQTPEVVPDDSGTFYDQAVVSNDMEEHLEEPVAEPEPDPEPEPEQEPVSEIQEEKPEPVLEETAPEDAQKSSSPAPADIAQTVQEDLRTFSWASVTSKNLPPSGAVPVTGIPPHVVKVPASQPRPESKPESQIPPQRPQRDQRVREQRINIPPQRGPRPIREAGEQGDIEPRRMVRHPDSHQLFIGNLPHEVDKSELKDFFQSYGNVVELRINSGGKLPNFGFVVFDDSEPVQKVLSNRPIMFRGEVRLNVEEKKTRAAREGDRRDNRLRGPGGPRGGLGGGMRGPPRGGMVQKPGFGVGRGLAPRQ
# Technique: RNA Bind-n-Seq
# Form: RNA
# Medium: in vitro
# Concentration: 1 µM
# Setting: whole 134-nt RNA, ends assumed
# With: 150 mM KCl
# Baseline: input library
# Reading: higher = stronger binding
# Constant ends, left off below: GGGAGUUCUACAGUCCGACGAUC … UGGAAUUCUCGGGUGUCAAGG
Strand,log2 enrichment
UCCUGUGCUACACAUCGUAUGUACCGAAUCAAAUUUUUUUAAAUUUUUUUAAACCCAAAAAAGUAUUAUGUUACGCCGUUCGGAUCUGCA,-1.17
UCAAGUCCUGUGCUACACAUCGUAUGUACCGAAUCGGUGGUUUUUUUGGUUUGGAAAGUAUUAUGUUACGCCGUUCGGAUCUGCACUUCC,-1.27
CAAGUCCUGUGCUACACAUCGUAUGUACCGAAUCGGUUUUGGGUUUUGGUUUUGGAAAGUAUUAUGUUACGCCGUUCGGAUCUGCACUUC,-1.34
GUCCUGUGCUACACAUCGUAUGUACCGAAUCGGGGAAAGGGGUUUUUGGGGAAAGGGGAAAGUAUUAUGUUACGCCGUUCGGAUCUGCAC,2.36
AAGUCCUGUGCUACACAUCGUAUGUACCGAAUCGGGAAAAAGGGAAAAAGGGAGGGAAAGUAUUAUGUUACGCCGUUCGGAUCUGCACUU,1.68
CCUGUGCUACACAUCGUAUGUACCGAAUCGGGGAAAAAAAGGGGUGGGGUUUUUUUGGGGAAAGUAUUAUGUUACGCCGUUCGGAUCUGC,0.489
UAACUUUAGAGGAGGAUCUGAUGGAUAUGGCAGUGGACGUGGAUUUGGGAAUGGCUAUAAUGGGUAUGGAGGAGGACCUGGAGGUGGCAA,-0.861
UGUCCAGCUCUGAAGGGCAAAGUGCAGAAGAUCCUAAUCUGGAAGUGGGGUCAGCCACCAUCUCCCACACCAGUGCCUCGGCCUCCAGAU,-0.47
CUCAAGUCCUGUGCUACACAUCGUAUGUACCGAAUCGGGGCCGGCCGGGCCGGGAAAGUAUUAUGUUACGCCGUUCGGAUCUGCACUUCC,-1.33
GUCCUGUGCUACACAUCGUAUGUACCGAAUCGGCCCCCCGGGGCCCCCCGGCCCCCCGGAAAGUAUUAUGUUACGCCGUUCGGAUCUGCA,-1.15
GUCCUGUGCUACACAUCGUAUGUACCGAAUCGGGUUUGGGAAAAAGGGAAAAAAAGGGAAAGUAUUAUGUUACGCCGUUCGGAUCUGCAC,-0.04
UGGGAGGUGGAUUUUGUUUAUUUUUUUAGCUCAUUUCCAGGGGUGGGAAUUUUUUUUUAAUAUGUGUCAUGAAUCAAGUUGUUUUUGAAA,2.46
UCCUGUGCUACACAUCGUAUGUACCGAAUCGGGGUGGGGAAAAAGGGGUUUUUUUGGGGAAAGUAUUAUGUUACGCCGUUCGGAUCUGCA,1.57
CUCAAGUCCUGUGCUACACAUCGUAUGUACCGAAUCGGGUUUGGGAGGGAGGGAAAGUAUUAUGUUACGCCGUUCGGAUCUGCACUUCCA,2.14
